# Assay results from different studies.
# Compare with care: the assays were run in different laboratories. ± gives the spread as reported.
SMILES,test system,conditions,endpoint,value
N=C(N)NCc1ccc(C(=O)NCCCC[C@H](NC(=O)CCCCCCC(=O)NCCCC[C@H](NC(=O)N[C@@H](CCC(=O)O)C(=O)O)C(=O)O)C(=O)O)cc1[211At],"SCID mouse, PC-3 xenografts, spleen",2 h,tissue uptake,4.31 ± 1.96 %ID/g
COC(=O)C[C@](O)(CCCC(C)(C)OC(C)=O)C(=O)O[C@@H]1C(OC)=C[C@]23CCCN2CCc2cc4c(cc2[C@H]13)OCO4,"CD1 mouse, brain","subcutaneous, 1 mg/kg, 24 h, below quantification limit 1.00 ng/mL",tissue concentration,not detected
CN[C@](C)(C[18F])C(=O)O,"SCID mouse MDA-MB-468 xenograft, spleen","15 min, post injection",tissue uptake,9 ± 2.1 %ID/g
C=Cc1cc(O)cc2nc(-c3ccc(O)c([76Br])c3)oc12,"female C57BL/6 mouse, muscle","1 h, low dose",tissue uptake,0.23 ± 0.13 %ID/g
N=C(N)NCc1ccc(C(=O)NCCCC[C@H](NC(=O)N[C@@H](CCC(=O)O)C(=O)O)C(=O)O)cc1[131I],"SCID mouse, PC-3 xenografts, stomach",14 h,tissue uptake,0.26 ± 0.38 %ID/g
CC[C@H](C)[C@H](NC(=O)[C@@H](Cc1c[nH]c2ccccc12)NC(=O)[C@@H]1CCCN1C(=O)[C@H](CCCCN)NC(=O)[C@H](CCCCN)NC(=O)CCNC(=O)CCNC(=O)CN1CCN(CC(=O)O)CCN(CC(=O)O)CCN(CC(=O)O)CC1)C(=O)N[C@@H](C[Si](C)(C)C)C(=O)O [gallium-68 labelled],"mouse, HT-29 xenograft, nude, prostate","90 min, ex vivo biodistribution, unblocked",tissue uptake,2.25 ± 0.65 %ID/g
N=C(N)NCc1ccc(C(=O)NCCCC[C@H](NC(=O)CCCCCCC(=O)NCCCC[C@H](NC(=O)N[C@@H](CCC(=O)O)C(=O)O)C(=O)O)C(=O)O)cc1[131I],"SCID mouse, PC-3 xenografts, muscle",1 h,tissue uptake,0.31 ± 0.14 %ID/g
COc1cc2ncnc(Oc3cccc(N[11C](=O)Nc4cc(C(C)(C)C(F)(F)F)on4)c3)c2cc1OC,"Balb/c nude mouse, female, A375 melanoma xenograft, blood","6.6 MBq, 30 min",tissue uptake,1.75 ± 0.45 %ID/g
O=C(O)CC[C@H](NC(=O)O[C@@H](CCCCNC(=O)c1ccc([18F])cc1)C(=O)O)C(=O)O,"mouse, PC-3 PIP/flu xenografts, bladder",180 min,tissue uptake,2.74 ± 0.48 %ID/g

# A few entries again:
SMILES,test system,conditions,endpoint,value
CN[C@](C)(C[18F])C(=O)O,"SCID mouse MDA-MB-468 xenograft, spleen","15 min, post injection",tissue uptake,9 ± 2.1 %ID/g
